Experimental data from different studies.
Parts stem from different laboratories: compare values within a part only. Positions count from the first letter of the parent shown.

Study 1
Target: ABI1, truncated, D143A, DHFR fusion (Arabidopsis thaliana)
Method: DHFR PCA, deep sequencing
Matrix: yeast
Notes: methotrexate growth selection, single substitutions
With: (+)-ABA 17 µM
Reference: wild-type fitted maximum
Reading: higher = stronger binding
Starting sequence: PYL1, truncated, DHFR fusion (Arabidopsis thaliana); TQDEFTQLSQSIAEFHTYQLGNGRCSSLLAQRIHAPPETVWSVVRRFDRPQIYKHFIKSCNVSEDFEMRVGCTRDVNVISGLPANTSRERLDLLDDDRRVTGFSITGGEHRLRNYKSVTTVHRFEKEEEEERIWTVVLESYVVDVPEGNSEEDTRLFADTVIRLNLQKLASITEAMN; partner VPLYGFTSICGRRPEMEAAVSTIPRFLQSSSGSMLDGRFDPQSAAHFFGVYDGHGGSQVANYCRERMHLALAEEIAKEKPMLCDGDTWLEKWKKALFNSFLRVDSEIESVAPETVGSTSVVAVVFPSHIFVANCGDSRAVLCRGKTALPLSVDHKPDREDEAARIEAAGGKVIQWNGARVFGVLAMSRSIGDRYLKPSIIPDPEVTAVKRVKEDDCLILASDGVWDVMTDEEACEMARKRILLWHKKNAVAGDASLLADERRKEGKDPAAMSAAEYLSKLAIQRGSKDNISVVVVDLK
Substitution | relative binding score [%]
L169H | -9.42
C72F | 49.9
G108H | -1.49
P37C | 58.3
S140W | -0.328
L164E | 30.1
V118N | 52
F103Q | -21.5
V44F | -13
L28K | 37.7
E125C | 79.4
L8Y | 64.7
A175L | 79.3
Y141C | 6.98
L112N | -5.31
A175D | 85
G102D | -8.25
L91Y | 22.1
R90N | 17.9
V70N | 26.7
T39F | 62.7

Study 2
Target: PABPC1L2, full length, GST fusion (mouse, UniProt A0ABA7IW68)
Method: RNAcompete
Molecule type: RNA
Matrix: in vitro
Concentration: 20 nM
Notes: 7-mer, probes averaged, single round
Reference: mean of 7-mers
Reading: higher = stronger binding
Residues (chain): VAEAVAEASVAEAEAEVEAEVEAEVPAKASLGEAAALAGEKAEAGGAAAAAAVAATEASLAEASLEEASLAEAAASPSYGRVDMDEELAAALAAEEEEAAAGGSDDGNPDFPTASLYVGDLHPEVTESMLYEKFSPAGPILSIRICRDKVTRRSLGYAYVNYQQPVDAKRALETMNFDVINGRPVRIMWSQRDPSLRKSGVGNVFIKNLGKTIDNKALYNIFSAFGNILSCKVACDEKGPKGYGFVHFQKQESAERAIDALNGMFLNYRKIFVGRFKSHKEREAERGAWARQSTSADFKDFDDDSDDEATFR
Oligonucleotide | 7-mer Z-score
UGUGAAG | -0.0446
CCUUUGC | -0.432
GCGGCCG | -0.242
GCGCUUG | -0.244
AUGGGAC | 0.198
UAAACCC | 0.0805
UAUCACC | -0.284
UCGAUGG | -0.0228
CGGUUUU | -0.275
CAAGAGG | 0.291
ACUUACA | 0.00617
AUAAACC | 1.01
GUGUGAU | -0.211
GAUGCGC | -0.166
CGCCCCC | -0.508
CAGUCUU | -0.364

Study 3
Target: RING finger protein unkempt homolog, zinc fingers 1-6, GST-SBP tag (UNK, Homo sapiens, UniProt Q9C0B0, residues 30-357)
Method: RNA Bind-n-Seq
Molecule type: RNA
Matrix: in vitro
Concentration: not given
Notes: RNA with constant flanks, human and mouse sites, ends assumed
Reference: input RNA pool
Reading: higher = stronger binding
Construct (chain): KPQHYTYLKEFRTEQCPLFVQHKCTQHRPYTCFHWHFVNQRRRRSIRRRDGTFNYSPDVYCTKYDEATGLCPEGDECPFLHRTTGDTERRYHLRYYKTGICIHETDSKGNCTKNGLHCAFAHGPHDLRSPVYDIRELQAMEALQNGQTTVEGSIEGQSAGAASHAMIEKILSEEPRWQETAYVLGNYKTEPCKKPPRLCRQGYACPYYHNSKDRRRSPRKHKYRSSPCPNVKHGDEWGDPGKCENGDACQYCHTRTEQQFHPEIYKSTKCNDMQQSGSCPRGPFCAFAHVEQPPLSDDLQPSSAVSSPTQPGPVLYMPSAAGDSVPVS
Oligonucleotide | bound/input enrichment [ratio]
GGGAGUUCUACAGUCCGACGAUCAAACGGCAGGAAGACCCUGACCACUGUCCAAGGGAUCGCUGAUGAUUACGAUAAAAAGAAACUAGUGAAGGCGUUUAAGAAGAAGUUUGCCUGCAAUGGUACUGUAAUUGAGCAUCCAGACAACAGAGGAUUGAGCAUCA | 0.124
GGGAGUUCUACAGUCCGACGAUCACUGUUGUUUAUGGCCCACCUCCUGCUGGGGCCCCCAUGGUGUAUGGGCCUCCACCCCCCAACUUCUCCAUCCCCUUCAUCCCUAUGGGUGUGCUGCAUUGCAACGUCCCUGAACACCAUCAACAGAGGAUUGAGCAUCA | 0.317
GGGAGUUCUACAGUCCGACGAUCAGGGCCGCUCCUUCACGCCGGAGACAGGCGGGCCGCCGGUUGCGCUACCUGCCUACUGGUAGCUUUCCCUUCCUCCUCUUGCUGCUGCUGCUCUGCAUCCAGCUCGGGGGCGGACAGAAGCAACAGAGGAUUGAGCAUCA | 0.0975
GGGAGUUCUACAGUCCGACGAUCCACAGAGCAGCACCUACCCCCUCCUCCUUUCCACACCUGCAAACUCUUUUACUUGGGCUGAAUAUUUAGUGUAAUUACAUCUCAGCUUUGAGGGCUCCUGUGGCAAAUUCCCGGAUUAAACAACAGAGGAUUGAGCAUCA | 1.13
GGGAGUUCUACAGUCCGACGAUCAACAGCUCUCUCCUUCCUCGUUACUGCAAAUUGAUUGUUUCCCUUUCCUGGUACCAUAAUCUUAGAGGCAAACUUUGAGACAGGUGUUUUGAGGCUCUUCCUGUACUCUUAGGAUAUAUGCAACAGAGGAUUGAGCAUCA | 1.38
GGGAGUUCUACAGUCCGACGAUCCUCUCCAACUGCAACCACACCUACUGUCUCAAGUGUAUUCGCAAGUGGAGAAGUGCUAAACAAUUUGAGAGCAAGAUCAUAAAGUCCUGCCCCGAAUGCCGGAUCACAUCUAACUUUGUCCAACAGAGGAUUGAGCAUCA | 0.0851
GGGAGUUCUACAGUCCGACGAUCCAUGCAUUUUAUUGGGGAUGGGAGGUUGGAAUAAUUUAUCCAAAUCUAAUGGUAUUAUUUCAUAGGCUAAUCCAGUUUGUAUUUGAGUUAAAGAUCCCAGAGUGUAGUAAUUAAUUGCAGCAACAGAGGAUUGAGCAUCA | 2.3
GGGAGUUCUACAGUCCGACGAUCGCUGGGAGAAAUGUUGGAAAUGGUUUAAACACAUUAUCAGAUUCAUCUUGGAGGCAUAGUCAAGUUCCUAGAUCUUCAUCAAUGGUACUUGGAUCAUUUGGAACAGACUUAAUGAGAGAGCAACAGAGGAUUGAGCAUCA | 0.356

Study 4
Target: FOSL1, bZIP domain (human)
Method: DHFR protein complementation
Matrix: yeast
Notes: single substitutions, most at no-binding floor
Reference: wild-type JUN-FOS pair
Reading: higher = stronger binding
Starting sequence: JUN, bZIP domain (human); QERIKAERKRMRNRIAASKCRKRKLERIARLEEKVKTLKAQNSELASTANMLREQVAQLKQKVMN; partner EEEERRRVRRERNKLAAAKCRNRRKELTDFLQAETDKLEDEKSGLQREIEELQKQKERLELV
Substitution | binding fitness
A40E | -0.367 natural log
L45W | -1.46 natural log
E54A | -0.522 natural log
L52M | -1.01 natural log
Q55T | -0.543 natural log
E54Q | -0.743 natural log
K36S | -0.426 natural log
A40P | -1.34 natural log
V56C | -0.852 natural log
L45S | -1.37 natural log
Q55M | -0.608 natural log
K34I | -0.791 natural log
K39Q | -0.689 natural log
A46R | -0.217 natural log
T37Y | -0.578 natural log
I28T | -0.637 natural log
E32H | -0.671 natural log
K34W | -0.541 natural log
E44T | -0.628 natural log
T37N | -0.264 natural log
Q55F | -1.11 natural log

Study 5
Target: CCNA1, cyclin fold, Cln2 fusion (human)
Method: yeast growth competition, sequencing
Matrix: yeast
Notes: weak parent motif
Reference: not given
Reading: higher = stronger binding
Starting sequence: CDKN1B docking peptide (human); PSACRNLFGPVDH
Substitution | normalised enrichment score
R5Y | 0.458
N6A | 0.299
F8V | 0.0204
C4Q | 0.156
D12M | 0.248
P1I | 0.237
A3E | 0.414
H13K | 0.299
S2A | 0.336
C4M | 0.267
P10W | 0.405
N6Y | 0.0732
L7E | 0.196
H13V | 0.2
G9I | 0.291
A3R | 0.348
H13N | 0.279

Some of these lines once more (study 5):
Substitution | normalised enrichment score
A3R | 0.348
L7E | 0.196
H13K | 0.299
P10W | 0.405
A3E | 0.414
N6Y | 0.0732
S2A | 0.336
D12M | 0.248
F8V | 0.0204
R5Y | 0.458
G9I | 0.291
